Measured values pooled from the literature.
Numbers after ± are the reported error.

CNC(=O)c1cc(C)ccc1OCCc1ccc(Br)cc1 — CC50 (HepG2; galactose medium; 3 (unit not given)): 21 ± 11 µM
CNC(=O)[C@@]12C[C@@H]1[C@@H](n1cnc3c(NC)nc(C#Cc4ccc(Cl)s4)nc31)[C@H](O)[C@@H]2O — CC50 (Vero 76; cytotoxicity): > 100 µM
COc1ccc2cc(-c3cc(-c4cc(Cl)cc(Cl)c4)nn3[C@@H](C)c3ccc(C(=O)NCCC(=O)O)cc3)ccc2c1 — CC50 (African green monkey cells; 5 days): 18.8 µM
Fc1ccc(-c2ccc(CN3CCN(c4cccc5ccoc45)CC3)[nH]2)cc1 — CC50 (Huh-7-ACE2; 40 (unit not given)): > 2.5 µM
CN(C(=O)CN(CCO)CC(=O)N(C)C(C)(C)Cc1ccccc1)C(C)(C)Cc1ccccc1 — CC50 (African green monkey cells; 5 days): 26.3 µM
CC[C@H](NC(=O)[C@H](CS(=O)(=O)CC1CC1)N[C@@H](c1ccc(F)cc1)C(F)(F)F)C(=O)C(=O)NC1CC1 — CC50 (Huh-7-ACE2; 40 (unit not given)): > 2.5 µM
O=C(Nc1cc(F)c(F)c(F)c1)c1ccc(F)c(S(=O)(=O)N2CCC(O)CC2)c1 — CC50 (HepDES19): 23.4 ± 7 µM
COc1ccc2cc1Oc1ccc(cc1)C[C@H]1c3cc(c(OC)cc3CCN1C)Oc1c(OC)c(OC)cc3c1[C@H](C2)N(C)CC3 — CC50 (Huh-7-ACE2; 40 (unit not given)): 1.1 µM
C=C(C)[C@]12C[C@@H](C)[C@@]34O[C@]5(CCCCCCC[C@H](C)[C@H]6[C@H](C)C(=O)[C@@](O)([C@H](O)[C@@]7(CO)O[C@H]7[C@H]3[C@H]1O5)[C@@H]64)O2 — CC50 (MT4; CellTiter-Glo): > 6.5 µM
CCOC(=O)C1=C(CN2CCC[C@@H]2C(=O)Nc2cccc(B(O)O)c2)NC(c2nccs2)=N[C@H]1c1ccc(F)cc1Br — CC50 (HepDES19; MTS; 3 days): 29.8 µM
CC(C)(C)NC(=O)N[C@H](C(=O)N1C[C@H]2[C@@H]([C@H]1C(=O)NC(CC1CCC1)C(=O)C(N)=O)C2(C)C)C(C)(C)C (stereo partly drawn) — CC50 (293T; MTT; 24 h): > 250 µM
Cc1cccc(/C=N/Nc2cc(N3CCOCC3)nc(OCCc3ccccn3)n2)c1 — CC50 (Huh-7-ACE2; 40 (unit not given)): > 2.5 µM
CC(C)[C@H](NC(=O)c1ccccc1NC(=O)c1ccccn1)C(=O)N[C@H](CO)C(C)C — CC50 (293T; MTT; 24 h): > 250 µM
CC[C@H]1CN2CC[C@H]1C[C@@H]2[C@@H](O)c1ccnc2ccc(OC)cc12 — CC50 (African green monkey cells; 5 days): > 25.1 µM
COc1ccc(CCN2CCC(Nc3nc4ccccc4n3Cc3ccc(F)cc3)CC2)cc1 — CC50 (Huh-7-ACE2; 40 (unit not given)): > 2.5 µM
Cc1cscc1-c1ccc(OCCc2cccc(F)c2)c(C(N)=O)c1 — CC50 (HepG2; 3 (unit not given), human): 37 ± 7.5 µM
CN1CCCC(n2nc(Cc3ccc(Cl)cc3)c3ccccc3c2=O)CC1 (stereo not drawn) — CC50 (African green monkey cells; 5 days): 17.8 µM
Nc1ccn(C[C@@H](CO)OCP(=O)(O)O)c(=O)n1 — CC50 (African green monkey cells; 3 (unit not given)): > 317 µM
CC(=O)c1cc(-c2ccoc2)ccc1OCCc1cccc(F)c1 — CC50 (HepG2; galactose medium; 3 (unit not given)): 24 ± 6 µM
Cc1cc(O[C@@H](CCC(F)(F)F)c2ccc(C(=O)NCCC(=O)O)cc2)cc(C)c1-c1ccc(C(C)(C)C)cc1 — CC50 (African green monkey cells; 5 days): 10.4 µM
COc1ccc(CCOc2ccc(-c3ccsc3)cc2C(N)=O)cc1F — CC50 (HepG2; galactose medium; 3 (unit not given)): 36 ± 24 µM
CC(C)(O)c1ccc2c(c1)C(=CCCN1CCC(O)(c3ccc(Cl)cc3)C(C)(C)C1)c1cccnc1CO2 (stereo not drawn) — CC50 (Huh-7-ACE2; 40 (unit not given)): 8.4 µM
CNC(=O)c1cc(C)ccc1OCCc1ccc(C2CC2)cc1 — CC50 (HepG2; galactose medium; 3 (unit not given)): 17 ± 5.6 µM
C[C@@H]1CS/C(=N\NC(=O)C(=O)[C@H](NC(=O)C2CCCCCC2)C2CCOCC2)N1C — CC50 (Huh-7-ACE2; 40 (unit not given)): > 2.5 µM
CCCCCCCCCCCCCCCCOCCCOP(=O)(O)CO[C@H](CO)Cn1ccc(N)nc1=O — CC50 (African green monkey cells; 3 (unit not given)): > 10 µM
COc1cc2c(cc1N1C[C@@H](C)N[C@@H](C)C1)N(C(=O)c1ccc(-c3ccc(-c4noc(C)n4)cc3C)cc1)CC2 — CC50 (Huh-7-ACE2; 40 (unit not given)): 1.5 µM
Cc1cccc(C)c1NC(=O)CN1CCN(CCCC(c2ccc(F)cc2)c2ccc(F)cc2)CC1 — CC50 (African green monkey cells; 5 days): 8.41 µM
NC(=O)c1cc(-c2ccsc2)cc(F)c1OCCc1cccc(F)c1 — CC50 (HepG2; 3 (unit not given), glucose medium): 33 ± 3.9 µM
C=C1CC[C@@H]2[C@](C)(CO)[C@H](O)CC[C@@]2(C)[C@@H]1C/C=C1/C(=O)OC[C@H]1O — CC50 (African green monkey cells; 5 days): 21.6 µM
O=C(NC1COC1)c1cc(-c2ccoc2)ccc1OCCc1cccc(F)c1 — CC50 (HepG2; galactose medium; 3 (unit not given)): 40 ± 7 µM
CC(C)C[C@@H]1NC(=O)[C@@H](NC(=O)OCc2ccccc2)Cc2cn(nn2)CCCNC(=O)CC[C@@H](C=O)NC1=O — CC50 (HG23 norovirus replicon cells; crystal violet staining; 48 h): > 100 µM
Nc1ccc2cc3ccc(N)cc3nc2c1 — CC50 (African green monkey cells; 5 days): 6.61 µM
Cc1ccc(OCCc2ccc(C3CC3)cc2)c(C(N)=O)c1 — CC50 (HepG2; galactose medium; 3 (unit not given)): 8.8 µM
